{"data": "Published values of several laboratories", "note": "Each numbered part is a random draw from the data of one study; scales do not carry over between parts."}
{"data": "Sample 1", "target": "Histone acetyltransferase KAT6A, winged helix 1, GST fusion (KAT6A, Homo sapiens, UniProt Q92794, residues 1-85)", "technique": "protein binding microarray", "form": "double-stranded DNA, one strand shown", "medium": "in vitro", "tested at": "not given", "notes": "8-mer, flanks averaged, mean of 2 arrays, mostly near background", "reference": "not given", "reading": "higher = stronger binding", "Construct (chain)": "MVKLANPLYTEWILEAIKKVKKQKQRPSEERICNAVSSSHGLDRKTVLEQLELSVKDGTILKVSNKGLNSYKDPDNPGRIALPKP"}
{"Oligonucleotide": "CGGGACGA", "E-score": 0.104}
{"Oligonucleotide": "ACACCCTC", "E-score": -0.107}
{"Oligonucleotide": "CACTCGCA", "E-score": 0.045}
{"Oligonucleotide": "ATTCGCCA", "E-score": -0.0907}
{"Oligonucleotide": "GATTAACA", "E-score": -0.041}
{"Oligonucleotide": "CGAGGGGC", "E-score": 0.0111}
{"Oligonucleotide": "GCCTGACC", "E-score": -0.054}
{"data": "Sample 2", "target": "Interferon regulatory factor 7, full length, phosphomimetic (IRF7, Homo sapiens, UniProt Q92985, residues 1-503, S101K/S471D/S472D/S475D/S476D/S477D/S483D/S484D/S487D)", "technique": "protein-binding microarray", "form": "double-stranded DNA, one strand shown", "medium": "in vitro", "tested at": "250 nM", "notes": "60-bp whole probe", "with": "salmon DNA 0.4 mg/ml", "reference": "random background probes", "reading": "higher = stronger binding", "all sequences stand within": "GCCTAGCAC … GTCTTGATTCGCTTGACGCTGCTG", "UniProt Q92985, sequence (whole entry, unmodified, looked up)": "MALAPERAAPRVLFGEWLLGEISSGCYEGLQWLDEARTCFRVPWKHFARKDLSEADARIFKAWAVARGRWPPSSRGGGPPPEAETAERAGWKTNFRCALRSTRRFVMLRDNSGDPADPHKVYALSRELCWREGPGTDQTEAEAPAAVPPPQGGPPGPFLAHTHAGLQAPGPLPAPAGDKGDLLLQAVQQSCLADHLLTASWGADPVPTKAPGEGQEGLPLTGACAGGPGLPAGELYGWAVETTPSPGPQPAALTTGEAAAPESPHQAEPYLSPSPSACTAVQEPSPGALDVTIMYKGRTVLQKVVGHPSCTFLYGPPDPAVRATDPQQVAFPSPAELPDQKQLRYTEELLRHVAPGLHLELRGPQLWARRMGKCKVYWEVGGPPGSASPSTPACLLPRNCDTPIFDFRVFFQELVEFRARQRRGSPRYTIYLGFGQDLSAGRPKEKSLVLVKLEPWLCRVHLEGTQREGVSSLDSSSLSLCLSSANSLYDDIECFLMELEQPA"}
{"Oligonucleotide": "TTTAGAAAGATTAGGGGTGCGTGCTAG", "log fluorescence [z-score]": -0.671}
{"Oligonucleotide": "CTCGCCTGGGGATGCTAACAGTGCTAG", "log fluorescence [z-score]": -0.625}
{"Oligonucleotide": "CTTCTCCTCCAGGTTCTCTGAGTGCTA", "log fluorescence [z-score]": 0.227}
{"Oligonucleotide": "TTAGATTTCGGGACTGGATCAGTGCTA", "log fluorescence [z-score]": 0.236}
{"Oligonucleotide": "TGACAGAGTGAGGTTTGGGCGTGCTAG", "log fluorescence [z-score]": -0.916}
{"data": "Sample 3", "target": "Centromere-binding protein 1, full length, N-terminal tag (CBF1, Saccharomyces cerevisiae, UniProt P17106, residues 1-351)", "technique": "protein-binding microarray", "form": "double-stranded DNA, one strand shown", "medium": "in vitro", "tested at": "0.8 µM", "notes": "whole 60-bp probe, no competitor", "reading": "higher = stronger binding", "all sequences stand within": "… GTCTTGATTCGCTTGACGCTGCTG", "UniProt P17106, sequence (whole entry, looked up)": "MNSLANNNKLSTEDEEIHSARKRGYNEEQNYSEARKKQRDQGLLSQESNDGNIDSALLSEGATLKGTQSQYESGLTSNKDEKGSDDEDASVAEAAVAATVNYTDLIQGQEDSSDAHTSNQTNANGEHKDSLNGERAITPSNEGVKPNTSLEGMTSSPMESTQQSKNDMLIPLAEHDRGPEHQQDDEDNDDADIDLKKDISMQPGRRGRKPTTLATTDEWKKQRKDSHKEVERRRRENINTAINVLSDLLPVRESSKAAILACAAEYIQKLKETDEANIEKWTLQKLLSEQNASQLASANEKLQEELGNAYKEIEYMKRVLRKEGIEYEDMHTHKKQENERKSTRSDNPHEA"}
{"Oligonucleotide": "GAATACATCCGTACACATGTGACGTTCGTTCAATAG", "fluorescence intensity [a.u.]": 2540}
{"Oligonucleotide": "CTAAAGTAGTTGTGACATGTGGATGTAATAGCGTTC", "fluorescence intensity [a.u.]": 787}
{"Oligonucleotide": "GAAAAGGTCCAACATTCTCACATGAGGAATACATAG", "fluorescence intensity [a.u.]": 523}
{"Oligonucleotide": "CTAAAAAAGTATAATCACGTTAATCAAGGCTGCTTC", "fluorescence intensity [a.u.]": 777}
{"Oligonucleotide": "CCTAACTACTATAACCTCGGTCAATAGCTTCGTACA", "fluorescence intensity [a.u.]": 478}
{"data": "Single results of other studies"}
{"Molecule": "PhoQ, residues 284 288 289 292 302 303 TNSAEL", "target": "PhoP, residues 12 14 15 18 19 VQGLL (Escherichia coli, UniProt P23836)", "test": "Sort-seq, measured: YFP reporter", "test system": "E. coli", "setting": "PhoQ-PhoP variant library, with: 10 µM Mg2+", "how to read": "reference: high Mg2+ state, higher = stronger signaling", "endpoint": "fold induction", "value": 3.09}
